Experimental data from different studies.
Each numbered part is a random draw from the data of one study; scales do not carry over between parts.

Set 1
Target: RNA binding protein fox-1 homolog 2, RRM domain, GST-SBP tag (RBFOX2, Homo sapiens, UniProt O43251-10, residues 100-194)
Method: RNA Bind-n-Seq
Form: RNA
Matrix: in vitro
Tested at: 365 nM
Setting: natural RNA segment, single round, ends assumed
Reference: no-protein control
Direction: higher = stronger binding
All sequences stand within: GGGAGUUCUACAGUCCGACGAUC … UGGAAUUCUCGGGUGCCAA
Construct (chain): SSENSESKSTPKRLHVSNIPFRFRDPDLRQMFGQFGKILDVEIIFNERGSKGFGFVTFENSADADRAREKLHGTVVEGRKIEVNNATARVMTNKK
`CAGAGCGCCUCUCUGGCACCACAGCAGGGAUCGUCAGGUAAUAAACACUCUUGAUUCCCUGAGGAAAUAUCGGUCCCUUUGUCUUGGGCAGAGCAGUCUUAUGAAGCUGG`: “RBNS enrichment (R)” 0.307.
`UCUAAAGUGUUUACCAGAUGCUGAAGGCAAGGGGAGGGAGCAGAAGCACUUAUGUUUACGGAUAUUUUAAACUCUGUUAGAGAGCAGCCUUUGAAAAUCCCCAAUUUGGU`: “RBNS enrichment (R)” 1.22.
`UAUUUAGGAUCUUAAGGUGUAUAAAAAGCAAACAUGACUUUGCACCUAAGUAAAUUCUGCAUUCUCAUAGUUGUGUCCCAAUUAACCAAAAAGUUGUCUCUAGAGAAAAU` — result for “RBNS enrichment (R)”: 0.288.
Under “RBNS enrichment (R)”, `AGGAAUAUGGCCGGACAGGAGACUUACUUGUGGAGAAGGGACAGACCAGGCCUUCCCUCUAGGGCUUCUGGCUACUUGCUGCAGUUCUUUGUCAGCGAGGCUCCCUGCCA` is recorded as 0.432.
`GAUGCCUUGCCAGUGUGUCUUACUUGGUUGCUGAACAUCUUGCCACCUCCGAGUGCUUUGUCUCCACUCAGUACCUUGGAUCAGAGCUGCUGAGUUCAGGAUGCCUGCGU` — result for “RBNS enrichment (R)”: 0.867.
`GGGUGCUUUGAAAUAUAAAAUGAAAACUUAUUUAUACUGUUUUUACAACAGUCAAAAAGGAAACACACGAAAAUCACUUUUCUGCAACUGAUGAACUAUAUAGACUGGAC`: “RBNS enrichment (R)” 0.426.
Under “RBNS enrichment (R)”, `GUACUAGAACCAGAGCAAUCCACUGAUUCAUAUUGGAUCCCAAGUAUACCUCCUGCUGGUAUCAGGUGUCAGAAGGGACAUUUGUUAGAUGCCUUACUUGACCUUCCUAG` is recorded as 0.333.
For `ACAUGGUUACUAAGAAGAGAAAAACCUGAUGUUUGCAUAAUAUUUUUUUUCCCCUCGAGAUGGAGUCUUGCUCUGUUGCCCAGGCUGGAGUGCAGUGGCAUGAUCUCAGC`, “RBNS enrichment (R)” read 1.74.

Set 2
Target: Histone acetyltransferase KAT6A, both winged helices, GST fusion (KAT6A, Homo sapiens, UniProt Q92794, residues 1-181)
Method: protein binding microarray
Form: double-stranded DNA, one strand shown
Matrix: in vitro
Tested at: not given
Setting: 8-mer, flanks averaged, mean of 2 arrays, mostly near background
Reference: not given
Direction: higher = stronger binding
Residues (chain): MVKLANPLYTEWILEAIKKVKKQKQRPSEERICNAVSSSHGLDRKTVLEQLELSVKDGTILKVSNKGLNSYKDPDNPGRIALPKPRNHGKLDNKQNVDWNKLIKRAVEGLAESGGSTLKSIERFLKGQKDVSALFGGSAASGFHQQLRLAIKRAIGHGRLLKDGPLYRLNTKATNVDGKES
For `GCAACTCA`, the E-score was -0.0641.
`CCTCAGCA` has an E-score of -0.00488.
With `TCCTAGGA` the E-score was -0.105.
`GCCGGGAC` has an E-score of 0.208.
For `CATCTGGG`, the E-score was -0.0871.
`CCGTCCTA` gave an E-score of 0.13.
The E-score of `GACTTGCA` is reported as -0.0588.
`ACACTCGG` has an E-score of 0.124.
With `GATTCAGC` the E-score was 0.0957.
The E-score of `CATTGGAG` is reported as 0.0195.
With `AGTTAGAT` the E-score was -0.106.
For `CGCCCGCC`, the E-score was 0.358.
The E-score of `ACCTCTAC` is reported as -0.0822.
For `CAAGGTTA`, the E-score was -0.0558.
`CCTGGCCA` has an E-score of -0.0805.
With `TCGCGAGA` the E-score was 0.21.
`ATTACCGC` has an E-score of 0.291.
The E-score of `CTCGGCCC` is reported as 0.148.
`CGGAGAAC` gave an E-score of 0.169.
For `TAAAACAA`, the E-score was -0.0374.

Set 3
Target: Centromere-binding protein 1, full length, N-terminal tag (CBF1, Saccharomyces cerevisiae, UniProt P17106, residues 1-351)
Sequence of UniProt P17106 (whole entry, looked up): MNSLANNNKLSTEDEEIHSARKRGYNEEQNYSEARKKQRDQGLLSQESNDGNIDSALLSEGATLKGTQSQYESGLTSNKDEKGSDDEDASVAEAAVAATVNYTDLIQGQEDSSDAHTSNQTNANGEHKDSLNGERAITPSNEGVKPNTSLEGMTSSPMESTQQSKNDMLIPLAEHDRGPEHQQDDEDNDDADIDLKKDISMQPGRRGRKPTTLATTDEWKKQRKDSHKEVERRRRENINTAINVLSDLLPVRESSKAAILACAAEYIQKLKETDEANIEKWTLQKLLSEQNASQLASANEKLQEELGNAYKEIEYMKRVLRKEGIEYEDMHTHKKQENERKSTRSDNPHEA
Method: protein-binding microarray
Form: double-stranded DNA, one strand shown
Matrix: in vitro
Tested at: 0.8 µM
Setting: whole 60-bp probe, no competitor
Direction: higher = stronger binding
All sequences stand within: … GTCTTGATTCGCTTGACGCTGCTG
`CTACAGTAATCGAGTCATGTGTACTTTAAAGTTTTC` has a fluorescence intensity of 1840 a.u.
The fluorescence intensity of `GAAGGAAAGTTTCGACACGTTCATTAGGTTCTATAG` is reported as 564 a.u.
`CTAAGACATCTAACAGGTGAGTTTGAAAAGTAATTC` has a fluorescence intensity of 529 a.u.
`CTACACGAGATCCATCTCGTGACCGTGAAAAAATTC` has a fluorescence intensity of 5420 a.u.
The fluorescence intensity of `GAATATTTAAGGTGTCACGGTGATTGCAAGATGTAG` is reported as 778 a.u.
For `CTAGAATTTGAATAGAACGTGACTCAACAGAAATTC`, the fluorescence intensity was 2430 a.u.
`CTAATTCAACAACACCACCAGCAGCTCTGATTTTTC` has a fluorescence intensity of 519 a.u.
The fluorescence intensity of `CTAGTTCACCGGAAAGCCGTGACAAAAGAGAGTTTC` is reported as 541 a.u.
`CTAAAATTGAACATTCAGGAGATTTTTGAATGCTTC` gave a fluorescence intensity of 487 a.u.
`CTATTGCAAGAATTACTCGTGAGTAAGGAAAGATTC` has a fluorescence intensity of 543 a.u.
`GAAACCAATCATGCTAACGTGGATGCGAAGGGATAG` gave a fluorescence intensity of 560 a.u.
For `CCTAACTACTATAATAAGGTGATATAGCTTCGTACA`, the fluorescence intensity was 536 a.u.
With `TGTACGAAGCTATATCAGCTGTTTATAGTAGTTAGG` the fluorescence intensity was 573 a.u.
For `CTAAAAGGTCTATAATAGGTGGTGCCTTCTTGCTTC`, the fluorescence intensity was 499 a.u.
`CCTAACTACTATACTCACCTTATATAGCTTCGTACA` gave a fluorescence intensity of 534 a.u.
For `CTAACTAAATACATGCAGGTGACTGATAGAAAATTC`, the fluorescence intensity was 1500 a.u.
`TGTACGAAGCTATTGCACGAGAATATAGTAGTTAGG` has a fluorescence intensity of 594 a.u.
For `CCTAACTACTATAGACGCGTGCAATAGCTTCGTACA`, the fluorescence intensity was 568 a.u.
`CTATTTTCTTGAGTGTGCGTGATGTTGTGTGTGTTC` gave a fluorescence intensity of 708 a.u.

Set 4
Target: Ras GTPase-activating protein-binding protein 1, RRM domain (G3BP1, Homo sapiens, UniProt Q13283)
Sequence of UniProt Q13283 (whole entry, looked up): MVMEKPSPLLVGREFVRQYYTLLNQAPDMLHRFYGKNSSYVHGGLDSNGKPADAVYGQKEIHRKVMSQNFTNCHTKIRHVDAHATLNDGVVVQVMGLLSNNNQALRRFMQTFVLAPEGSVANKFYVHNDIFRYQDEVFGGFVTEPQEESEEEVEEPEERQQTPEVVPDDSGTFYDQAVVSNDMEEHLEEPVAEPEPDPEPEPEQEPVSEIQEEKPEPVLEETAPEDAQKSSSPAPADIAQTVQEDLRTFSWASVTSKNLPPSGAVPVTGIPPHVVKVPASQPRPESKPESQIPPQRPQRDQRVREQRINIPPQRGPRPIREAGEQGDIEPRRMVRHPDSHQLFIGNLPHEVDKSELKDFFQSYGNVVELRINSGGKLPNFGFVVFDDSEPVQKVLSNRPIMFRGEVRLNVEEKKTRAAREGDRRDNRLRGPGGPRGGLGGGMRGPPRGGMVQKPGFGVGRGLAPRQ
Method: RNA Bind-n-Seq
Form: RNA
Matrix: in vitro
Tested at: 1 µM
Setting: whole 134-nt RNA, ends assumed
With: 150 mM KCl
Reference: input library
Direction: higher = stronger binding
All sequences stand within: GGGAGUUCUACAGUCCGACGAUC … UGGAAUUCUCGGGUGUCAAGG
`GUCCUGUGCUACACAUCGUAUGUACCGAAUCGGGGAGGGGUUUGGGGUUUUUUUGGGGAAAGUAUUAUGUUACGCCGUUCGGAUCUGCAC` gave a log2 enrichment of 1.1.
`UUAAAGAAAUGUCCACAAGUAACUUUGAAUCAUCUCCUGAAGUAGAAGAAAGGCCUGCUGUGUCUUUGACUCUUGAUCAGAGCCAGUCAC` has a log2 enrichment of -0.156.
With `UAACUUUAGAGGAGGAUCUGAUGGAUAUGGCAGUGGACGUGGAUUUGGGGAUGGCUAUAAUGGGUAUGGAGGAGGACCUUGAGGUGGCAA` the log2 enrichment was -0.419.
The log2 enrichment of `CACAGACAACUCGCACCCACACAGACACAGAGGGAAGGGGUUGGGAUGGGGACAGGGUGCACAGCAGGGCGGGGUAGGACCCCAGCCCCU` is reported as 0.161.
For `UCCUGUGCUACACAUCGUAUGUACCGAAUCGGGGAAAAAAGGGGAAAAAAGGAAAAAAGGAAAGUAUUAUGUUACGCCGUUCGGAUCUGC`, the log2 enrichment was 0.0448.
With `CAAGUCCUGUGCUACACAUCGUAUGUACCGAAUCGGCCCCGGCCCCGGCCCCGGGGAAAGUAUUAUGUUACGCCGUUCGGAUCUGCACUU` the log2 enrichment was -1.42.
For `UGGGAAGUGGAUUUUGUUUAUUUUUUUAGCUCAUUUCCAGGGGUGGGAAUUUUUUUUUAAUAUGUGUCAUGAAUAAAGUUGUUUUUGAAA`, the log2 enrichment was 1.62.
The log2 enrichment of `GCAGGAAGUAAAUACAAAUGGAAAUGCUUCGGAUAGUGGCAGGGGUGGGGGUUGCUAAGGAAAGGGUGGGAUGGGAGUGGGUAAAGAGUU` is reported as 1.16.
`ACCAUGCAGGUGGGCAUCUUUGGGAAGUGGGGCAAGGGGGGGAUAGGGUGGGGGGUAACACUUUGGGAACAGGUGGUCCCAGGUCGUUUC` has a log2 enrichment of 0.936.

Excerpt of the above (set 3):
The fluorescence intensity of `GAATATTTAAGGTGTCACGGTGATTGCAAGATGTAG` is reported as 778 a.u.
`CTAATTCAACAACACCACCAGCAGCTCTGATTTTTC` has a fluorescence intensity of 519 a.u.
`CTACAGTAATCGAGTCATGTGTACTTTAAAGTTTTC` has a fluorescence intensity of 1840 a.u.
The fluorescence intensity of `GAAGGAAAGTTTCGACACGTTCATTAGGTTCTATAG` is reported as 564 a.u.
`CTAAAATTGAACATTCAGGAGATTTTTGAATGCTTC` gave a fluorescence intensity of 487 a.u.
With `TGTACGAAGCTATATCAGCTGTTTATAGTAGTTAGG` the fluorescence intensity was 573 a.u.
`CTATTGCAAGAATTACTCGTGAGTAAGGAAAGATTC` has a fluorescence intensity of 543 a.u.
For `CTAACTAAATACATGCAGGTGACTGATAGAAAATTC`, the fluorescence intensity was 1500 a.u.
`CCTAACTACTATACTCACCTTATATAGCTTCGTACA` gave a fluorescence intensity of 534 a.u.
